Results of several laboratories.
Lines come from different studies, so protocols differ. “And” joins repeats or separate records; there may be more than shown.

| Compound | organism | assay | test system | conditions | scale | endpoint | value |
| --- | --- | --- | --- | --- | --- | --- | --- |
| CC(C)CN(C[C@@H](O)[C@H](Cc1ccccc1)NC(=O)O[C@H]1CO[C@@H]2OCC(F)(F)[C@@H]21)S(=O)(=O)c1ccc(N)cc1 | HIV-1 LAI | viral replication, MTT | MT2 | concentration not given |  | antiviral activity | inactive |
| CO[C@H]1[C@H](O[C@H]([C@H]2O[C@@H](n3ccc(=O)[nH]c3=O)[C@H](O)[C@@H]2O)[C@H](NCCCNC(=O)[C@@H](NC(=O)[C@@H](NC(=O)N[C@H](C(=O)O)C(C)C)[C@@H]2CCNC(=N)N2)[C@@H](OC(=O)CCCCCCCCCCCCN(O)C(=N)N)C(C)C)C(N)=O)O[C@H](CN)[C@H]1O | Candida glabrata | alamar blue | DSY565 |  |  | MIC50 | > 35 µg/mL |
| CN(C)c1cc(CN2CCOCC2)nc2nc(NCc3ccc(C(C)(C)C)cc3)nn12 | Candida parapsilosis |  |  | concentration not given, without pantothenic acid |  | growth inhibition | ≤ 50% |
| CC(C)CN(C[C@@H](O)[C@H](Cc1ccccc1)NC(=O)O[C@H]1CO[C@H]2OCC[C@H]21)S(=O)(=O)c1ccc(NC(=O)CCl)cc1 | HIV-1 | viral replication | MT-2 cells, LAI |  |  | IC50 | > 1000 nM |
| COC(C)(C)Cn1cc(-c2ccc3cc(OC4CC4)ccc3c2)c2c(N)ncnc21 | Cryptosporidium parvum | parasite growth | HCT-8 |  |  | EC50 | 1820 nM and < 2000 nM |
| CO[C@H]1[C@H](O[C@H]([C@H]2O[C@@H](n3ccc(=O)[nH]c3=O)[C@H](O)[C@@H]2O)[C@H](NCCCNC(=O)[C@@H](NC(=O)[C@@H](NC(=O)N[C@H](C(=O)O)C(C)C)[C@@H]2CCNC(=N)N2)[C@@H](OC(=O)CCCCCCCCCCCCNC(=N)N)C(C)C)C(N)=O)O[C@H](CN)[C@H]1O | Bacillus cereus | alamar blue | NRRL B-568 |  |  | MIC90 | > 35 µg/mL |
| CC(C)(NC(=O)Nc1ccc(Cl)c(-c2nc(C(F)(F)F)cs2)c1)c1cccc(C(N)=NO)c1 | Staphylococcus aureus |  | Smith, RPMI medium | added: no guanosine |  | MIC | 0.8 µM and ~1 µM |
| CN1CC[C@H](c2c(O)cc(O)c3c(=O)cc(-c4ccccc4F)oc23)[C@H](O)C1 | HIV-1 | viral replication | HeLa-CD4-LTR/β-gal, LAI |  |  | EC50 | 7.5 nM and < 10 nM |
| NCc1ccc(-c2ncc(OCC3CCNCC3)nc2-c2ccc(-c3ccoc3)cc2)cc1 | Zika virus |  | U87, FLR | 2.5 µM, 48 h |  | infectious virus reduction | 99% |
| CN1CC[C@H](c2c(O)cc(O)c3c(=O)cc(-c4ccc(C(C)(C)C)cc4)oc23)[C@H](O)C1 | HIV-1 | viral replication | HeLa-CD4-LTR/β-gal, LAI |  |  | EC50 | 152 nM |
| CC(C)(NC(=O)Nc1ccc(Cl)cc1)c1cccc(C(=N)NO)c1 | Staphylococcus aureus |  | Smith, RPMI |  | baseline: with over without guanosine | MIC ratio | 7 |

A few entries again:
| Compound | organism | assay | test system | conditions | scale | endpoint | value |
| --- | --- | --- | --- | --- | --- | --- | --- |
| CC(C)CN(C[C@@H](O)[C@H](Cc1ccccc1)NC(=O)O[C@H]1CO[C@H]2OCC[C@H]21)S(=O)(=O)c1ccc(NC(=O)CCl)cc1 | HIV-1 | viral replication | MT-2 cells, LAI |  |  | IC50 | > 1000 nM |
